Results gathered from unrelated publications.
A part holds a random share of what one study measured. Substitutions count along the parent as printed.

Study 1 — technique: competition protein-binding microarray; form: double-stranded DNA, one strand shown; matrix: in vitro; concentration: 2 µM; added: Pho4 competitor, 0.05 µM; reading: higher = stronger binding; shared flanks, not repeated: … GTCTTGATTCGCTTGACGCTGCTG
Target: Centromere-binding protein 1, full length, His-tagged (CBF1, Saccharomyces cerevisiae, UniProt P17106, residues 1-351)
Sequence of UniProt P17106 (whole entry, looked up): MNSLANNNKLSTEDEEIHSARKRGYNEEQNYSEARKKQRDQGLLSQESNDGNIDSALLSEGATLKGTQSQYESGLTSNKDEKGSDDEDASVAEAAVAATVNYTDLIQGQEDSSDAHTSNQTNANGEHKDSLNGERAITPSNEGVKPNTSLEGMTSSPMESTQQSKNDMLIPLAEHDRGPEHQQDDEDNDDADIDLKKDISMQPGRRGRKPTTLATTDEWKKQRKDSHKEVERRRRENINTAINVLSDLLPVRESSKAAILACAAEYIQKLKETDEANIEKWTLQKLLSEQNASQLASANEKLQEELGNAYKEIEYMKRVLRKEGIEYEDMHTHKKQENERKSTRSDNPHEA
Setting: whole 60-bp probe, lowest competitor level
`CTTCTGTAAATTTTTCACGTGGTTTGACGCGCCCCG` has a fluorescence intensity of 1180 a.u.
The fluorescence intensity of `CTAACGAAGGTTTGTGGTGTGGGTGACAAGCCAAGT` is reported as 75.7 a.u.
With `AAAAAAAGAACTGTGTACGTGATGGCTTTGTCCCCT` the fluorescence intensity was 95.6 a.u.
With `TATTCAGCCAGTTTGTATATATGAGAATTAAACGTT` the fluorescence intensity was 81.5 a.u.
`TTGTAAGGTGCAATGCACATGAGTGATTGTTAAAAA` gave a fluorescence intensity of 105 a.u.
`TCATGCTAAAAATGAGGCGTGGGACAATATTCAGTA` gave a fluorescence intensity of 74 a.u.
`TGCGCAACAACTTGATGGGTGGGTGTATGTCTAGAA` gave a fluorescence intensity of 69.2 a.u.

Study 2 — technique: DHFR PCA, deep sequencing; matrix: yeast; added: (+)-ABA 2500 µM; relative to: wild-type fitted maximum; reading: higher = stronger binding
Target: ABI1, truncated, D143A, DHFR fusion (Arabidopsis thaliana)
Setting: methotrexate growth selection, single substitutions
Starting sequence: PYL1, truncated, DHFR fusion (Arabidopsis thaliana); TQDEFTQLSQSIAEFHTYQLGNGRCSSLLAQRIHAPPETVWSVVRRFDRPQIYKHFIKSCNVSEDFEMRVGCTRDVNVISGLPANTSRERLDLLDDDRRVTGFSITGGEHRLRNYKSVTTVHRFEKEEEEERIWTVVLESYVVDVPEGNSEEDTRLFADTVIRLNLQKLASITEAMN
Under “relative binding score”, `P146V` is recorded as 81.9%.
Under “relative binding score”, `E139Q` is recorded as 91.9%.
Under “relative binding score”, `V70T` is recorded as 94.7%.
Under “relative binding score”, `E89T` is recorded as 3.67%.
For `Q167D`, “relative binding score” read 93.5%.
`T17A` — result for “relative binding score”: 99.7%.

Study 3 — target: CCND1, cyclin fold, Cln2 fusion (human); technique: yeast growth competition, sequencing; matrix: yeast; setting: strong parent motif; relative to: not given; reading: higher = stronger binding
Starting sequence: PKN2 docking peptide (human); VSAVQKLDFSDTM
`VSAVQKLDMSDTM [F9M]`: “normalised enrichment score” -0.0662.
Under “normalised enrichment score”, `VSAVQKLDFWDTM [S10W]` is recorded as 1.28.
`VSAVQKLDFSDQM [T12Q]` — result for “normalised enrichment score”: 2.08.
Under “normalised enrichment score”, `VSAVQKLDFSDKM [T12K]` is recorded as 1.46.
For `VSAVQKLDVSDTM [F9V]`, “normalised enrichment score” read -0.122.
For `VSAEQKLDFSDTM [V4E]`, “normalised enrichment score” read 0.728.
`VSAVQKLDFSDTY [M13Y]` — result for “normalised enrichment score”: 2.04.
`VSAVQHLDFSDTM [K6H]` — result for “normalised enrichment score”: 0.948.
`FSAVQKLDFSDTM [V1F]`: “normalised enrichment score” 3.04.

Further values, each from its own experiment
`PhoQ, residues 284 288 289 292 302 303 AAQSYM` has a fold induction of 1 (PhoP, residues 12 14 15 18 19 NFCKL (Escherichia coli, UniProt P23836); Sort-seq, item: YFP reporter; E. coli; PhoQ-PhoP variant library, added: 10 µM Mg2+; relative to: high Mg2+ state, higher = stronger signaling).

Some of these lines once more (study 3):
`VSAVQKLDFSDTY [M13Y]` — result for “normalised enrichment score”: 2.04.
`VSAVQKLDMSDTM [F9M]`: “normalised enrichment score” -0.0662.
Under “normalised enrichment score”, `VSAVQKLDFSDKM [T12K]` is recorded as 1.46.
`FSAVQKLDFSDTM [V1F]`: “normalised enrichment score” 3.04.
